Literature values as cited in several papers.
Lines come from different studies, so protocols differ. ± marks the error that the study gave. Values after ≈ are worked out from the molar mass of the structure shown.

For `CNC(=O)c1cccc(-c2ccc(O[C@H]3O[C@H](CO)[C@@H](O)[C@H](O)[C@@H]3O)cc2)c1`, the IC50 was 1350 nM (Escherichia coli; biofilm formation; UPEC UTI89).
The ED50 of `CCCCCCCc1c(C)nc2cc(F)cc(F)c2c1OC(=O)OCCOCCOCCOCCOC` is reported as 11 mg/kg (Plasmodium yoelii; antimalarial activity; oral, prodrug).
`COc1ccc(/C=C(\C)[N+](=O)[O-])cc1` gave an IC50 of 40.5 ± 1.47 nM (Leishmania donovani; parasite growth; promastigote).
With `O=C(NO)c1ccc(Cn2c3c(c4cc(F)ccc42)SC(c2ccccc2)C3)s1` (centres unmarked) the LD50 was 23.3 µM (Schistosoma mansoni; schistosomula).
The MIC of `CC(=O)NCC1CN(c2ccc(-c3ccc(C=CC(=O)N4CCNCC4)cc3)c(F)c2)C(=O)O1` (centres unmarked) is reported as 0.5 µg/mL (≈ 1.07 µM) (Staphylococcus aureus).
For `Cc1onc(-c2c(Cl)cccc2Cl)c1C(=O)Nc1ccc(F)cc1C(=O)NN=Cc1cccs1`, antiviral activity read “increased” (Tobacco mosaic virus; concentration not given; relative to: ningnanmycin).
With `CC[C@H](C)[C@@H]1NC(=O)[C@H](CCC(N)=O)NC(=O)[C@H](CCC(=O)O)NC(=O)[C@H](CCC(=O)O)NC(=O)[C@H](CCCCN)NC(=O)[C@@H]2CCCN2C(=O)[C@H](CC(C)C)NC(=O)[C@@H](NC(=O)[C@@H](N)CO)CSSC[C@@H](C(=O)N[C@@H](CCCNC(=N)N)C(=O)N[C@@H](CCCNC(=N)N)C(=O)N[C@@H](CCCCN)C(=O)N[C@@H](CCCCN)C(=O)O)NC(=O)[C@H](CCCCN)NC(=O)[C@H](CCCNC(=N)N)NC(=O)CNC(=O)[C@H](CCCNC(=N)N)NC(=O)[C@H]([C@@H](C)O)NC(=O)[C@H](CO)NC(=O)[C@H](CCCCN)NC(=O)CNC1=O` the MBC was 16 µM (≈ 41.4 µg/mL) (Escherichia coli; K-12 MG1655; pH 7.4).
`Cc1cccc(C)c1NC1=C(O)C(=O)c2ccccc2C1=O`: “mean survival time” 26.7 ± 2.5 days (Plasmodium berghei; infected mice; dose not given).
`CC/C(=C\c1ccc(O)cc1)[N+](=O)[O-]` has an IC50 of 61.6 ± 8.02 nM (Leishmania donovani; parasite growth; amastigote).
The IC50 of `O=C(NNC(=S)Nc1ccc(C(F)(F)F)cc1)c1ccc(-c2nnc(-c3ccc4ncccc4c3)o2)cc1` is reported as 100 ± 1 nM (Leishmania).
For `CC[C@H](C)[C@@H]1NC(=O)[C@H](CCC(N)=O)NC(=O)[C@H](CCCCN)NC(=O)[C@H](Cc2ccc(O)cc2)NC(=O)[C@H](CCCNC(=N)N)NC(=O)[C@H](CCCNC(=N)N)NC(=O)[C@@H]2CCCN2C(=O)[C@@H](NC(=O)[C@@H](N)Cc2ccccc2)CSSC[C@@H](C(=O)N[C@@H](CCCCN)C(=O)O)NC(=O)[C@H](CCCCN)NC(=O)[C@H]([C@@H](C)O)NC(=O)CNC(=O)[C@@H]2CCCN2C(=O)[C@H](CC(C)C)NC(=O)CNC(=O)[C@H]([C@@H](C)O)NC(=O)CNC1=O`, the MBC was 23 µM (≈ 49.5 µg/mL) (Staphylococcus aureus; ATCC 8530; pH 7.4).
`C[C@H](NC(=O)[C@H](Cc1c[nH]cn1)NC(=O)[C@H](CO)NC(=O)[C@@H](N)CC(=O)O)C(=O)N[C@@H](CCCCN)C(=O)N[C@@H](CCCNC(=N)N)C(=O)N[C@@H](Cc1c[nH]cn1)C(=O)N[C@@H](Cc1c[nH]cn1)C(=O)NCC(=O)N[C@@H](Cc1ccc(O)cc1)C(=O)N[C@@H](CCCCN)C(=O)N[C@@H](CCCNC(=N)N)C(=O)N[C@@H](CCCCN)C(=O)N[C@@H](Cc1ccccc1)C(=O)N[C@@H](Cc1c[nH]cn1)C(=O)N[C@@H](CCC(=O)O)C(=O)N[C@@H](CCCCN)C(=O)N[C@@H](Cc1c[nH]cn1)C(=O)N[C@@H](Cc1c[nH]cn1)C(=O)N[C@@H](CO)C(=O)N[C@@H](Cc1c[nH]cn1)C(=O)N[C@@H](CCCNC(=N)N)C(=O)NCC(=O)N[C@@H](Cc1ccc(O)cc1)C(=O)O`: “binding sites per cell” ~3600 (Porphyromonas gingivalis; 381; concentration not given).
`C[C@@](CCc1ccc(-c2ccccc2)cc1)(C(=O)NO)S(C)(=O)=O` has an MIC90 of 4 µg/mL (≈ 11.5 µM) (Pseudomonas aeruginosa; PAO1 M62R).
For `CC(C)C[C@H](NC(=O)[C@H](CCCNC(=N)N)NC(=O)[C@@H]1CCCN1C(=O)[C@H](CCCCN)NC(=O)[C@H](Cc1ccccc1)NC(=O)CCC(=O)Nc1ccc2c(c1)Cc1cc(Br)ccc1-2)C(N)=O`, the relative potency was ~50 fold (Helicoverpa zea; pupal diapause termination; pupae; relative to: native diapause hormone).
The MIC of `Cc1c(Cc2c(Cl)cccc2Cl)c(=O)ccn1Cc1cccs1` is reported as 1 µg/mL (≈ 2.75 µM) (Staphylococcus aureus; methicillin-resistant).
With `CN(CCCN)[C@H](C(=O)O)[C@H](O[C@@H]1O[C@H](CN)[C@@H](O)[C@H]1O)[C@H]1O[C@@H](n2ccc(=O)[nH]c2=O)[C@H](O)[C@@H]1O` the MIC was 3.13 µg/mL (≈ 6.02 µM) (Staphylococcus).
For `CNC(=O)[C@@H]1Cc2c([nH]c3ccccc23)[C@@H](c2ccc(C)cc2Cl)N1`, the IC50 was 340 ± 50 nM (Plasmodium falciparum; parasite growth; Dd2).
With `CCN(CCNc1ccnc2cc(Cl)ccc12)CCNS(=O)(=O)c1cccc2c(N(C)C)cccc12` the IC50 was 22.7 nM (Plasmodium falciparum; parasite growth; Dd2, chloroquine-resistant).
`O=C(NCCNCCO)c1cn(Cc2ccccc2)c2cc(Cl)c(OCc3ccc(C(F)(F)F)cc3)cc2c1=O` gave an MIC of 32 µg/mL (≈ 55.7 µM) (Acinetobacter baumannii; growth; ATCC 19606).
For `CCCCCCCCCCCCCCCCSSCCOP(=O)(O)CO[C@H](C)Cn1cnc2c(N)ncnc21`, the therapeutic index was 28000 (HIV-1).
`O=C(O)[C@@H]1Cc2c([nH]c3ccccc23)[C@@H](c2ccc(C(F)(F)F)cc2C(F)(F)F)N1` gave an IC50 of > 10000 nM (Plasmodium falciparum; parasite growth; Dd2).
`Cc1cc(C#N)cc(C)c1Oc1nc(NC2CCN(Cc3ccc(S(N)(=O)=O)cc3)CC2)nc2ccsc12` has a selectivity index of > 159000 (HIV-1; IIIB; relative to: CC50 over EC50).
`Cc1c(-c2ccc(Cc3ccc(OC(F)(F)F)cc3)cc2)[nH]c2cccc(F)c2c1=O` — result for “EC50 fold change”: 3 to 4 fold (Plasmodium falciparum; cyt b A122T; relative to: wild type).

For quick reference, copied from above:
With `CN(CCCN)[C@H](C(=O)O)[C@H](O[C@@H]1O[C@H](CN)[C@@H](O)[C@H]1O)[C@H]1O[C@@H](n2ccc(=O)[nH]c2=O)[C@H](O)[C@@H]1O` the MIC was 3.13 µg/mL (≈ 6.02 µM) (Staphylococcus).
`C[C@@](CCc1ccc(-c2ccccc2)cc1)(C(=O)NO)S(C)(=O)=O` has an MIC90 of 4 µg/mL (≈ 11.5 µM) (Pseudomonas aeruginosa; PAO1 M62R).
The MIC of `Cc1c(Cc2c(Cl)cccc2Cl)c(=O)ccn1Cc1cccs1` is reported as 1 µg/mL (≈ 2.75 µM) (Staphylococcus aureus; methicillin-resistant).
